Experimental data from different studies.
Protocols differ between the studies behind these lines. Values joined by “and” are separate records of one study, mostly repeats; a detail may differ.
Target: Serine/threonine-protein kinase 33 (STK33, Homo sapiens, UniProt Q9BYT3)

SMILES	test	system	setting	scale	endpoint	result
Cc1ccc(C(=O)Nc2ccc(CN3CCN(C)CC3)c(C(F)(F)F)c2)cc1C#Cc1cnc2cccnn12	target engagement, NanoBRET	human cells			upper asymptote	-1.3
CCN1CCN(Cc2ccc(NC(=O)c3ccc(C)c(NC(=O)c4cncc(-c5cccs5)c4)c3)cc2C(F)(F)F)CC1	binding, competition with immobilised ligand		1 µM		remaining binding	36%
O=C=[N][Ru-4]123([n]4c5ccc(O)cc5c5c6c(c7cc(F)c[n+]1c7c54)C(=O)NC6=O)[S+]1CC[S+]2CC[S+]3CC1 (stereo not drawn)	enzyme activity		100 nM, human enzyme, added: 10 µM ATP	baseline: untreated	remaining activity	100%
CN1CCN(Cc2ccc(-c3ccc(CO[C@H]4CCC[C@@H]4NC(=O)c4cc(-c5cnn(C)c5)cnc4N)cc3)cc2)CC1	enzyme activity, inhibitor		0.1 µM		inhibition	-2%
Cc1cnc2nc1Nc1cccc(c1)COC/C=C/COCc1cc(ccc1OCCN1CCOCC1)N2	binding, competition with immobilised ligand		0.1 µM		remaining binding	86%
CNC(=O)C[C@H](Cc1ccc(C#N)cc1)NC(=O)c1cc(-c2ccc(CN[C@H](C)c3ccc(C)cc3)o2)ccc1Cl	enzyme activity, inhibitor		1 µM		activity vs control	99%
CCn1cc(C(=O)O)c(=O)c2c(N)c(F)c(NC3CCCCC3)cc21	kinase activity		0.1 µM, added: ATP at Km		inhibition	-4.5%
COc1cc(Nc2nccc(-c3cnn4nc(OC)ccc34)n2)cc(C(F)(F)F)c1	binding, competition with immobilised ligand		1 µM		remaining binding	100%
CN1CC[C@@H](COc2cnc(C#N)cc2-c2ccn3nc(NC(=O)C4CC4)cc3c2)C1	enzyme activity, inhibitor		1 µM		inhibition	-5%
NC(=O)C[C@H]1CCc2sc3ncnc(O[C@H]4CC[C@H](N5CCOCC5)CC4)c3c21	enzyme activity, inhibitor		10 µM		inhibition	15%
CCN1CCN(Cc2ccc(C(=O)Nc3ccc(C)c(NCc4cnc5[nH]ccc5c4OC)c3)cc2C(F)(F)F)CC1	binding, competition with immobilised ligand		1 µM		remaining binding	58%
CNC(=O)C1CCN(c2cc(C)c(F)cc2NC(=O)c2ccc(-c3cc(O)ccc3C)c(C)c2)CC1	binding, competition with immobilised ligand		1 µM		remaining binding	81%
N[C@H]1CC[C@H](Nc2nccc(-c3cccnc3Oc3ccc(NC(=O)NC4CC4)c4ccccc34)n2)CC1	kinobead competition pulldown	HEK293/HCT116 lysate mixture	10 µM, 1 h, 4 °C	lower = stronger competition	log2 LFQ intensity	23.2 and 23.1 and 23.3
O=C(Cc1ccc(OCc2ccccc2)cc1)NC1(C(=O)O)CCN(C(=O)c2ccc(-c3cccc(Cl)c3)cc2)CC1	enzyme activity, inhibitor		10 µM		activity vs control	121%
C=CC(=O)N1Cc2nc(-c3cc(-c4cc(Cl)cnc4Cl)c(F)cc3F)n(-c3ccncn3)c2C1	cell-free assay, inhibitor		1 µM		inhibition	-1.3%

For quick reference, copied from above:
SMILES	test	system	setting	scale	endpoint	result
CNC(=O)C1CCN(c2cc(C)c(F)cc2NC(=O)c2ccc(-c3cc(O)ccc3C)c(C)c2)CC1	binding, competition with immobilised ligand		1 µM		remaining binding	81%
N[C@H]1CC[C@H](Nc2nccc(-c3cccnc3Oc3ccc(NC(=O)NC4CC4)c4ccccc34)n2)CC1	kinobead competition pulldown	HEK293/HCT116 lysate mixture	10 µM, 1 h, 4 °C	lower = stronger competition	log2 LFQ intensity	23.2 and 23.1 and 23.3
